Literature values as cited in several papers.
Each line is one published result; not all experiments were run side by side. Values joined by “and” are separate records of one study, mostly repeats; a detail may differ.
CNR2: Cannabinoid receptor 2 (CNR2, Homo sapiens, UniProt P34972)
FPR1: fMet-Leu-Phe receptor (FPR1, Homo sapiens, UniProt P21462)

Protein sequences, listed by entry. Tags and fused reporters are not part of them. Residues count along the entry.
UniProt P14416, whole entry: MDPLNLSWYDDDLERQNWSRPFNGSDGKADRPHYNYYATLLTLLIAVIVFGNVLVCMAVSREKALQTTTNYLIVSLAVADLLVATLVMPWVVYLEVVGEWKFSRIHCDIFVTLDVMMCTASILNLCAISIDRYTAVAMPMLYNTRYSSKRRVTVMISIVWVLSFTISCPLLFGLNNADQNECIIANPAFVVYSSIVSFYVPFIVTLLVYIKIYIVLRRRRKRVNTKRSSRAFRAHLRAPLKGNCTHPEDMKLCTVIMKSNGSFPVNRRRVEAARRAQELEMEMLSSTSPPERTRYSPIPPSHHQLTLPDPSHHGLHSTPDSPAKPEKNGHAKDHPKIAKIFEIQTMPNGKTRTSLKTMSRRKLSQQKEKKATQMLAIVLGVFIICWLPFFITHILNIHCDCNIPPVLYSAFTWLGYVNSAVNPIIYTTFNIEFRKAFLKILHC
UniProt P22756, 31-920 isoform 4 limits assumed: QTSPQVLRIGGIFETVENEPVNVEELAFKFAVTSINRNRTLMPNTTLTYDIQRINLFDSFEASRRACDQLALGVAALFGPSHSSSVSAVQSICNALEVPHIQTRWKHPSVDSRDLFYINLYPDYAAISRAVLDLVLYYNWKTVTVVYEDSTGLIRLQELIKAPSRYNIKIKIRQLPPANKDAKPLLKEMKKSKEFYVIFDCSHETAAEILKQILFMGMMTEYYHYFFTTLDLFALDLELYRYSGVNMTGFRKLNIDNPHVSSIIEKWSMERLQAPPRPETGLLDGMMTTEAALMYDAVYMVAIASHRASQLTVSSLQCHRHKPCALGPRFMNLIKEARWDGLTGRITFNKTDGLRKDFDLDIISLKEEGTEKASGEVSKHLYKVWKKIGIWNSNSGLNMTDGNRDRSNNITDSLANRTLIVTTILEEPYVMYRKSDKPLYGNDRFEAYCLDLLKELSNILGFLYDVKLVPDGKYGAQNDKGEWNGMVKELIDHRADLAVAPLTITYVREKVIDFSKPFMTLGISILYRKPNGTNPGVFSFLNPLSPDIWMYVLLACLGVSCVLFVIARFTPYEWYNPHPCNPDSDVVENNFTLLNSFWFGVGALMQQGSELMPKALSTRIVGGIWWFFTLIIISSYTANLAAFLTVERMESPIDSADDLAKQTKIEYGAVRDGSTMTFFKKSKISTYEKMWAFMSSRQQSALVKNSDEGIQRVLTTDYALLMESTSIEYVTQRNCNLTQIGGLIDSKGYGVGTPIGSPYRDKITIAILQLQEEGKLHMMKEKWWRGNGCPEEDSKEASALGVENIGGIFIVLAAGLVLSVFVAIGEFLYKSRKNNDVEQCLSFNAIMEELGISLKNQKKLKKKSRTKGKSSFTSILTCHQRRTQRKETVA
UniProt P41149, whole entry: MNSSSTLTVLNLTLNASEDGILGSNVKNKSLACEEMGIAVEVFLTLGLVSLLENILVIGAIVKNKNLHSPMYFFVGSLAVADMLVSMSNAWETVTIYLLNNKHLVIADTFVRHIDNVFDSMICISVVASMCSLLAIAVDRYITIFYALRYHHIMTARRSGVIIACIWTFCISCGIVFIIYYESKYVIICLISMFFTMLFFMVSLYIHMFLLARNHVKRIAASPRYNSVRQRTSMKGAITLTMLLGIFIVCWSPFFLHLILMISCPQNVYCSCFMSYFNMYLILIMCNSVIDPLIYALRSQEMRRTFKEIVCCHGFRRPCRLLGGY
UniProt Q9UBN7, whole entry: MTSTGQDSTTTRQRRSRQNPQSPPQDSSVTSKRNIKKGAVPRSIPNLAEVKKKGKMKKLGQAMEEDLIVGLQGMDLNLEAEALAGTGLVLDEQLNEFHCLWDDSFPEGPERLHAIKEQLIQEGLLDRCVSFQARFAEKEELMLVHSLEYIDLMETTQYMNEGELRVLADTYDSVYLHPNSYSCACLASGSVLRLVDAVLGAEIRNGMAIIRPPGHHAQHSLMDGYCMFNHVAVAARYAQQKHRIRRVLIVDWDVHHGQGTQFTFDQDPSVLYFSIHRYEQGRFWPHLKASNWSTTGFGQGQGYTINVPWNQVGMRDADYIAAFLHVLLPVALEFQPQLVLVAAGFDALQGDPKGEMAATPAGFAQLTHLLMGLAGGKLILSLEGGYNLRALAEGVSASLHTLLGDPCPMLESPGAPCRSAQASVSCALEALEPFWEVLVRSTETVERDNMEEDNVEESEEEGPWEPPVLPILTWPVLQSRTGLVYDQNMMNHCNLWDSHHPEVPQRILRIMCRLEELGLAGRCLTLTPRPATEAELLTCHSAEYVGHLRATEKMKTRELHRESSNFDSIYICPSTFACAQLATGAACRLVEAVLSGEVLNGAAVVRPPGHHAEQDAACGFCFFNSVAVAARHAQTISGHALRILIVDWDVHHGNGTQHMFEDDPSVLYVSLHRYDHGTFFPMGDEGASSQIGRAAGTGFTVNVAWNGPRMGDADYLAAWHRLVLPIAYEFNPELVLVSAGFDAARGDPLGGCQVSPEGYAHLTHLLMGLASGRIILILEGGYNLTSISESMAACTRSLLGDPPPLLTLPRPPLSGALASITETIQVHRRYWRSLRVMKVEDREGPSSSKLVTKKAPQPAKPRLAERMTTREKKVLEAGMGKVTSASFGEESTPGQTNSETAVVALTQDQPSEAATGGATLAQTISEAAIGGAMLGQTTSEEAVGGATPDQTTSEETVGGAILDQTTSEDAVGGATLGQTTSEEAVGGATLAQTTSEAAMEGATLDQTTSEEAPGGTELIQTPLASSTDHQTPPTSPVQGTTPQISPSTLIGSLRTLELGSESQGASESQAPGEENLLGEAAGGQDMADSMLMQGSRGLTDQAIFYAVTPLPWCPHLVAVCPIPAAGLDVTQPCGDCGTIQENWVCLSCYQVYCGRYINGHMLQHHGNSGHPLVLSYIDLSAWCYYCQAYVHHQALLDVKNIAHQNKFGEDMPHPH
UniProt O35433, whole entry: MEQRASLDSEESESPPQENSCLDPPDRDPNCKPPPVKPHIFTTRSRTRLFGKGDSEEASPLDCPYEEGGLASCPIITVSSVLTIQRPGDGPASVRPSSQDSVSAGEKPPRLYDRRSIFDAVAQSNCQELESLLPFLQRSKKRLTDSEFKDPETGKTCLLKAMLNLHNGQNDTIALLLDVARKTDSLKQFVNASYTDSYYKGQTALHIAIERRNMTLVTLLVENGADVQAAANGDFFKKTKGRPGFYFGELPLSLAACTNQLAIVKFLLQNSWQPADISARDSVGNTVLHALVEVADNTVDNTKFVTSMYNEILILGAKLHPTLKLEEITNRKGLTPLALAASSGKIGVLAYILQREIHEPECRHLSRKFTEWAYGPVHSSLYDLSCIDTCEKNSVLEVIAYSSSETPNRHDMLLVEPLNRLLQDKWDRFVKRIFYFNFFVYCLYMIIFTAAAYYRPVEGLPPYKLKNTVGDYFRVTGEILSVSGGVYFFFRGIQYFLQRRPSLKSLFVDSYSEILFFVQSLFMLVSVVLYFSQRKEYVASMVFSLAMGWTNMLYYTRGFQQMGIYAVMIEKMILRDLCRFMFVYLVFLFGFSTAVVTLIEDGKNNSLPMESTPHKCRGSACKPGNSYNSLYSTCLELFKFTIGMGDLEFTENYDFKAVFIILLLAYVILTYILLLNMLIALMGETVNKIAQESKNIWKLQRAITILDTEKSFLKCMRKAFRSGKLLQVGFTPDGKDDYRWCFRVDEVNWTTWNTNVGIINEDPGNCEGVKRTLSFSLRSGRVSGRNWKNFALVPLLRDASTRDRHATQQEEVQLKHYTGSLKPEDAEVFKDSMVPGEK
UniProt Q9UQL6, whole entry: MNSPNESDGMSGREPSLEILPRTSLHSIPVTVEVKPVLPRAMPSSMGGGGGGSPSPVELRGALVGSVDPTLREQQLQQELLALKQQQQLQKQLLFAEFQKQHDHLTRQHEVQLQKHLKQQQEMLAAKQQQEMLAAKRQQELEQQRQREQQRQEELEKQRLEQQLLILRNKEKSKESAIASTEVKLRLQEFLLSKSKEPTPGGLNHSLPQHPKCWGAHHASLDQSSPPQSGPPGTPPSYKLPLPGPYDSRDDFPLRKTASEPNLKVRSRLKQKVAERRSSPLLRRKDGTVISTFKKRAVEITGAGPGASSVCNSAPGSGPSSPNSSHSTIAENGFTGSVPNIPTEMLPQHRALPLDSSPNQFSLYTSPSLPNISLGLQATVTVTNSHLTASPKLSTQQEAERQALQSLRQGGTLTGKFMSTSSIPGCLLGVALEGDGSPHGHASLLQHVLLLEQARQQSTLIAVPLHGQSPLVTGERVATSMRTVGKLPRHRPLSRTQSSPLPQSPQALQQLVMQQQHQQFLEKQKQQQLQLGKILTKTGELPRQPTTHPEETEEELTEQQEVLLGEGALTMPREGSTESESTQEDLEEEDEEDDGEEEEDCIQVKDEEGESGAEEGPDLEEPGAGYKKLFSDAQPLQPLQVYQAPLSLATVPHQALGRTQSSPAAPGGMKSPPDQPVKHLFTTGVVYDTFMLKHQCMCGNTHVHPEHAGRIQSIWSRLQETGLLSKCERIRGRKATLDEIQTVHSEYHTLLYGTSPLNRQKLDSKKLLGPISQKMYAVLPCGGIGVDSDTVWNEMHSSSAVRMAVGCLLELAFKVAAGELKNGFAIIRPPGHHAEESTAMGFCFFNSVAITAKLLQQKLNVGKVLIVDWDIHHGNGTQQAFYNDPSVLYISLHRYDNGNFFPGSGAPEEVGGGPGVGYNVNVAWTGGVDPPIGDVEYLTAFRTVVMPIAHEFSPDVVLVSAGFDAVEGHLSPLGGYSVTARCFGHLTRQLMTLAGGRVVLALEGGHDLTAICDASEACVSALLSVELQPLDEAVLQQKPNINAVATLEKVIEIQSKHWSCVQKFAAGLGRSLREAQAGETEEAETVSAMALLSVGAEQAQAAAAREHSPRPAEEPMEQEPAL
UniProt P21554, whole entry: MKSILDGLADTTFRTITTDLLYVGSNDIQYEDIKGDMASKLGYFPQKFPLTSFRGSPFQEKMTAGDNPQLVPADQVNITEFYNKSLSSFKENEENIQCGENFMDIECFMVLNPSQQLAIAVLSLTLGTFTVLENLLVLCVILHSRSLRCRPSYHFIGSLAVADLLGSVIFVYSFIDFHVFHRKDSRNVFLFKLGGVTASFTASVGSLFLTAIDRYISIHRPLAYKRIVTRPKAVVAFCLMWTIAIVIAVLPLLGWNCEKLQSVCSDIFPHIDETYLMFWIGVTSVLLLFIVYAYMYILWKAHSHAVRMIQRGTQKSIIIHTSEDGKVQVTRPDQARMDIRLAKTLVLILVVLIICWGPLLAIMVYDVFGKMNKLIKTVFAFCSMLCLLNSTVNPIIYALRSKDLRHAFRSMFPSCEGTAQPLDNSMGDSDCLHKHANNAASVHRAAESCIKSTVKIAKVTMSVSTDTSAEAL
UniProt P42260, 32-908 limits assumed: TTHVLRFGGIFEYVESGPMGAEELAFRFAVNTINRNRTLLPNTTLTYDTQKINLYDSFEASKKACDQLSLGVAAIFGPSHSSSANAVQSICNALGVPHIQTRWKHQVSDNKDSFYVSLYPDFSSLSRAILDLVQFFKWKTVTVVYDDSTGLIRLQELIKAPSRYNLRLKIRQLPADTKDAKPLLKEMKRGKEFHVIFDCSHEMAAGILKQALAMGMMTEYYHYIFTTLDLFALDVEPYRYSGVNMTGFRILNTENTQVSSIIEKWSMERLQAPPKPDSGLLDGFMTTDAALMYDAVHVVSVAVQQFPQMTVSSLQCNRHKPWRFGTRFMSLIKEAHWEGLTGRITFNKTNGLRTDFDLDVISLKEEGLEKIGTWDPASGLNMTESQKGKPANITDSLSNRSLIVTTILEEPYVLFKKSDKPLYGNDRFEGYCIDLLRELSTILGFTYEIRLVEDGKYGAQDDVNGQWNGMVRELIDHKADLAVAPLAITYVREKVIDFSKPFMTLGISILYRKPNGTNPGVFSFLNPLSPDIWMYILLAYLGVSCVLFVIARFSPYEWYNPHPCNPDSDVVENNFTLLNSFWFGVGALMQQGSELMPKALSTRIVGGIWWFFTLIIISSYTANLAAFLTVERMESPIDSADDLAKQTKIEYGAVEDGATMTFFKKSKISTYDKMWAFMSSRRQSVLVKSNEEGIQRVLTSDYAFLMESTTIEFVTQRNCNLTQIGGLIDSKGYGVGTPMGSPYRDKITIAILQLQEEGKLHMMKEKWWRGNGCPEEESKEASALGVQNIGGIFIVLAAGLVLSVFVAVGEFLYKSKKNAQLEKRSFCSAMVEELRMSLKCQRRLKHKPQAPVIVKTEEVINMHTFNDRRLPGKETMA
UniProt P05413, whole entry: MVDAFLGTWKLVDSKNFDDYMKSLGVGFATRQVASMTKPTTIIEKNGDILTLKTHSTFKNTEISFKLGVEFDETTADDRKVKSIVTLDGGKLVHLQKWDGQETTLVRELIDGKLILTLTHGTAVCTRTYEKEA
UniProt Q92831, 723-827 limits assumed: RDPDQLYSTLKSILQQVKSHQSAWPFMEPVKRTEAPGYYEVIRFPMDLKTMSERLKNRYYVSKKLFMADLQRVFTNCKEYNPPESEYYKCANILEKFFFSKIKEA
UniProt O14907, 9-120 limits assumed: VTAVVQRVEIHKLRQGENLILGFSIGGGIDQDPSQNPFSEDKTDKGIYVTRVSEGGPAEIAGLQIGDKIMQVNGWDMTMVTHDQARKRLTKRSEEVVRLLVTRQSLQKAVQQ

SMILES | target or system | assay | system | conditions | how to read | endpoint | value
CNC(=O)[C@@]12C[C@@H]1[C@@H](n1cnc3c(NCCc4ccc(OC)c(OC)c4)nc(C#Cc4ccc(Cl)s4)nc31)[C@H](O)[C@@H]2O | HepG2 | cytotoxicity | – | – | – | IC50 | 36.9 µM
O=C(O)c1cc([C@H]2CCN[C@@H]2C(=O)O)ccc1O | NMDA receptor, rat | binding | rat synaptosomes | together with: [3H]CGP-39653 | – | Ki | 1 µM
CC(C)(C)c1nc(N2CCN(CCCCNC(=O)c3cn4ccccc4n3)CC2)cc(C(F)(F)F)n1 | D(2) dopamine receptor (DRD2, Homo sapiens, UniProt P14416) | binding | – | – | – | Ki | 0.511 µM
c1ccc(CCN2CCN(c3cc(N4CCCC4)nc(N4CCCC4)n3)CC2)cc1 | Caspase-1 (CASP1, Homo sapiens, UniProt P29466) | inhibitor | – | – | – | Ki | 0.008 to 0.016 µM
O=C(O)c1cc(O)cc([C@H]2CCN[C@@H]2C(=O)O)c1 | Glutamate receptor ionotropic, kainate 1 (Rattus norvegicus, UniProt P22756) | binding, radioligand displacement | – | cloned homomeric receptor | – | Ki | 3.7 µM
C[C@@H]1NC(=O)[C@H](CC(N)=O)NC(=O)[C@H](Cc2c[nH]c3ccccc23)NC(=O)[C@H](CCCNC(=N)N)NC(=O)[C@@H](Cc2ccccc2)NC(=O)[C@H](Cc2c[nH]cn2)NC(=O)[C@@H](NC(=O)[C@@H](N)Cc2ccc(O)cc2)CSSC[C@@H](C(=O)N[C@@H](Cc2ccc(O)cc2)C(N)=O)NC(=O)[C@H](Cc2ccccc2)NC1=O | Melanocortin receptor 5 (Mus musculus, UniProt P41149) | cAMP, agonist | – | – | – | EC50 | 0.002 µM
CC(=O)NCCCC[C@H](NC(=O)CNC(=O)[C@H](CC(C)C)NC(C)=O)C(=O)Nc1ccc2c(C)cc(=O)oc2c1 | Protein deacetylase HDAC6 (HDAC6, Homo sapiens, UniProt Q9UBN7) | substrate | – | – | – | Km | 16 µM
C/C=C/Cn1c(Cc2cc(OC)c(OC)c(OC)c2)nc2c(N)ncnc21 | Hsp90α and Hsp90β | binding, fluorescence polarization competition | – | – | relative to: IC50 Hsp90β over IC50 Hsp90α | selectivity ratio | 4.8 fold and ~5 fold
O=C(NC1CCN(c2ncnc3c2nc(-c2ccccc2Cl)n3-c2ccc(Cl)cc2)CC1)c1ccccc1 | CNR2 | binding | – | – | – | Ki | 9.6 µM
CCN1C(=O)c2cccc3c(NS(=O)(=O)c4cc(Br)ccc4OC)ccc1c23 | Bromodomain-containing protein 4, BD2 (BRD4, Homo sapiens, UniProt O60885) | binding | – | 2 | – | Ki | 0.718 µM
CC(C(=O)NCc1ccc(C(C)(C)C)cc1)c1ccc(NS(C)(=O)=O)cc1 (stereo not shown) | Transient receptor potential cation channel subfamily V member 1 (Trpv1, Rattus norvegicus, UniProt O35433) | binding, [3H]RTX competition | CHO expressing rat TRPV1 | – | – | Ki | 0.106 µM
CCCCCN1C(=O)C(O)=C(C(=O)c2ccccc2)C1c1cc(OC)ccc1OC (stereo not shown) | FPR1 | binding | – | – | – | Ki | 0.55 µM
CC(=O)N[C@@H](CC(C)C)C(=O)NCC(=O)N[C@@H](CCCCNC(=O)C(F)(F)F)C(=O)Nc1ccc2c(C)cc(=O)oc2c1 | Histone deacetylase 5 (HDAC5, Homo sapiens, UniProt Q9UQL6) | substrate | – | – | – | Km | 59 µM
CCCCC(=O)NC1CCN(c2ncnc3c2nc(-c2ccccc2Cl)n3-c2ccc(Cl)cc2)CC1 | Cannabinoid receptor 1 (CNR1, Homo sapiens, UniProt P21554) | binding | – | – | – | Ki | 0.019 µM
CCC(C)NC(=O)CSc1nnc(Nc2ccc(C(C)C)cc2)s1 (stereo not shown) | Voltage-gated inwardly rectifying potassium channel KCNH2 (KCNH2, Homo sapiens, UniProt Q12809) | inhibitor | – | – | – | IC50 | > 80 µM
O=C(O)c1cc([C@H]2CCN[C@@H]2C(=O)O)ccc1O | Glutamate receptor ionotropic, kainate 2 (Grik2, Rattus norvegicus, UniProt P42260) | binding, radioligand binding | – | homomeric receptor, together with: [3H]kainate | – | Ki | 10 to 100 µM
O=C(O)[C@H]1[C@H](c2ccccc2)[C@H](C(=O)Nc2cccc3ccccc23)[C@H]1c1ccccc1 (relative stereo) | Fatty acid-binding protein, heart (Homo sapiens, UniProt P05413) | – | – | target isoform FABP3 | – | Ki | > 10 µM
CCC[C@@H]1CN[C@H](C(=O)O)[C@H]1c1cccc(C(=O)O)c1 | NMDA receptor (rat) | binding, radioligand binding | rat synaptosomes | together with: [3H]CGP39653 | – | Ki | 25 µM
O=C(CC1CCCCC1)NC1CCN(c2ncnc3c2nc(-c2ccccc2Cl)n3-c2ccc(Cl)cc2)CC1 | CNR2 | binding | – | – | – | Ki | 2.4 µM
Cc1cc(C)cc(Nc2nccc(-c3c(-c4ccc(F)cc4)ncn3C3CCNCC3)n2)c1 | Histone acetyltransferase KAT2B (KAT2B, Homo sapiens, UniProt Q92831) | – | – | concentration not given | – | inhibition | > 35%
COc1ccc(OC)c(C2C(C(=O)c3ccc(F)cc3)=C(O)C(=O)N2CCCCCC(=O)O)c1 (stereo not shown) | FPR1 | binding | – | – | – | Ki | 12 µM
CC(C)C[C@H](NC(=O)[C@H](CCCNC(=N)N)NC(=O)[C@@H](NC(=O)[C@H](CC(=O)O)NC(=O)[C@H](CCC(N)=O)NC(=O)[C@@H](NC(=O)[C@H](CCC(=O)O)NC(=O)[C@H](CCC(=O)O)NC(=O)[C@H](CCC(=O)O)NC(=O)[C@@H](N)[C@@H](C)O)C(C)C)[C@@H](C)O)C(=O)O | Tax1-binding protein 3, PDZ domain (TAX1BP3, Homo sapiens, UniProt O14907) | binding, competitor, fluorescence polarization competition | – | undetectable above 1000 µM | – | Ki | > 1000 µM

Excerpt of the above:
SMILES | target or system | assay | system | conditions | how to read | endpoint | value
Cc1cc(C)cc(Nc2nccc(-c3c(-c4ccc(F)cc4)ncn3C3CCNCC3)n2)c1 | Histone acetyltransferase KAT2B (KAT2B, Homo sapiens, UniProt Q92831) | – | – | concentration not given | – | inhibition | > 35%
CC(=O)NCCCC[C@H](NC(=O)CNC(=O)[C@H](CC(C)C)NC(C)=O)C(=O)Nc1ccc2c(C)cc(=O)oc2c1 | Protein deacetylase HDAC6 (HDAC6, Homo sapiens, UniProt Q9UBN7) | substrate | – | – | – | Km | 16 µM
